Results gathered from unrelated publications.
Numbered parts are unrelated; each lists some results of a single study. Changes are numbered by the printed parent chain.

Study 1
Target: UDP-N-acetylglucosamine--peptide N-acetylglucosaminyltransferase 110 kDa subunit (OGT, Homo sapiens, UniProt O15294)
Read-out: binding
Technique: phage display NGS
Form: peptide
Baseline: input library
Construct (O15294 1-1046): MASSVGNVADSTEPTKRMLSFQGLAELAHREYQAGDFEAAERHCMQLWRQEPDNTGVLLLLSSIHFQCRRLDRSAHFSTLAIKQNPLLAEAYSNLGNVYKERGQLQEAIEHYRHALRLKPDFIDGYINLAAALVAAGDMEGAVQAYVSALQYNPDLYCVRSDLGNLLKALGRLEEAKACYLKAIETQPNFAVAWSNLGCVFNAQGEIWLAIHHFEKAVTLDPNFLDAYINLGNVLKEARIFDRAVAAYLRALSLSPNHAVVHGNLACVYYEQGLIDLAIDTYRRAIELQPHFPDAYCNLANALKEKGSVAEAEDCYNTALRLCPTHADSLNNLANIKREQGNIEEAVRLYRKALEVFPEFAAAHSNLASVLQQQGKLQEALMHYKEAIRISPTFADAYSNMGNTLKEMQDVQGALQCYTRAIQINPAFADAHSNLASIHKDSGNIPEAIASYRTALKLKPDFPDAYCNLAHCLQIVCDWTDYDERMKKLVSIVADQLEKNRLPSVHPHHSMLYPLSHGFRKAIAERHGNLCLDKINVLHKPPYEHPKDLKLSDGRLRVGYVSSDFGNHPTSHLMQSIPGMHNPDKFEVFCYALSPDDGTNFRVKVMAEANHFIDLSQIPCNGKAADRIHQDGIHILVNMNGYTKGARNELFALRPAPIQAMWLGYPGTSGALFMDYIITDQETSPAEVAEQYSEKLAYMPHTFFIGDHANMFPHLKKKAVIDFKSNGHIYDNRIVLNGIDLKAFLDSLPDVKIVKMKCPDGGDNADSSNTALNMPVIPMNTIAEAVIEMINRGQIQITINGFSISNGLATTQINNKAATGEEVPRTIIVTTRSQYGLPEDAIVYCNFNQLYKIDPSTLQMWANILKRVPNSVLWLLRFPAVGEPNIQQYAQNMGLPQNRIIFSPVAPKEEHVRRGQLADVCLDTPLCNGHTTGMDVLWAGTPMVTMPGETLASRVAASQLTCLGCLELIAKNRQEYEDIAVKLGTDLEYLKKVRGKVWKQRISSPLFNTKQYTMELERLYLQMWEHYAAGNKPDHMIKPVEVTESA
Molecule | minimum log2 enrichment ratio
DSMLFTPLYQITVPH | 5.41
AHHQGAVDHMRTHHS | 1.93
HQHKLTPMFKHHGAM | 1.37
YATPWTPQYQIMYN | 4.47
EPYIGPHHMHHYEHS | 5.95
TLHQQFYPPMYFIKV | 3.28
TYWHRDHTQTHIPSY | 2.81
HLSQDHHPKRQKHTH | 2.3
HWHSAAIDPHRHRGE | 2.34
TYHFPHTHNHVQQHH | 3.9
GAYSPIYQIFYSRIT | 5.87
TMYEPMYQIKVIAHG | 4.27
HTPMREHQQIHWHKF | 2.99
SMVHGVHTIEHHHYQ | 2.01
VPWQHVHTAHNRWHS | 1.56
KEVFLPQYPIEIQT | 1.6
YFTTPMYQIYYERA | 3.76
VTNYHPSYHHLSHYA | 2.02
HTFREHYINHWTHSI | 3.33
VAYPNSYMPKYQIST | 4.17
HRVHTVETHYISHIV | 1.28
HPMIDRHKHTPWNKH | 2.08
YYLPAYQIAPKYVQD | 2.89
VTSLGNSPFMPFYQI | 3.26
HRDVNNHSLHQSPTH | 2.3

Study 2
Target: CCNB3, cyclin fold, Cln2 fusion (human)
Technique: yeast growth competition, sequencing
Sample: yeast
Setting: strong parent motif
Baseline: not given
Direction: higher = stronger binding
Starting sequence: viral docking peptide; KGVKRKLFAEDSS
Substitution | normalised enrichment score
KGVKRKTFAEDSS [L7T] | 0.563
KGVYRKLFAEDSS [K4Y] | 0.251
KGVKRKLFAMDSS [E10M] | 1.71
KRVKRKLFAEDSS [G2R] | 2.64
KGVKRYLFAEDSS [K6Y] | 0.531
KGVKRKLIAEDSS [F8I] | 0.147
KGVKRKLFAELSS [D11L] | 1.36
KGVKRKLVAEDSS [F8V] | 0.401
KGVKRDLFAEDSS [K6D] | 0.323
KVVKRKLFAEDSS [G2V] | 2.04
KGVKRKLFAEDGS [S12G] | 2.66
KGVMRKLFAEDSS [K4M] | 0.636
KGVKRKLFACDSS [E10C] | 1.9
KGNKRKLFAEDSS [V3N] | 0.219
KGVKRKLFAEDLS [S12L] | 2.85
KGVSRKLFAEDSS [K4S] | 1.52
KTVKRKLFAEDSS [G2T] | 2.54
KGVKRKLNAEDSS [F8N] | -0.149
KGVKHKLFAEDSS [R5H] | 0.129
KCVKRKLFAEDSS [G2C] | 3.29
KGVKRKFFAEDSS [L7F] | 0.21
KGAKRKLFAEDSS [V3A] | 1.33
KGVKRKLWAEDSS [F8W] | 0.207
KGVKRKEFAEDSS [L7E] | 0.617
KGVKKKLFAEDSS [R5K] | 0.865

Study 3
Target: inorganic phosphate, free oxyanion
Technique: microfluidic competitive inhibition
Sample: in vitro, cell-free expressed
Concentration: not given
Setting: derived from inhibition constants, unchanged parent 615000 nM
Direction: lower = stronger binding
Starting sequence: PafA, mature enzyme, eGFP fusion (Elizabethkingia meningoseptica, UniProt Q9KJX5); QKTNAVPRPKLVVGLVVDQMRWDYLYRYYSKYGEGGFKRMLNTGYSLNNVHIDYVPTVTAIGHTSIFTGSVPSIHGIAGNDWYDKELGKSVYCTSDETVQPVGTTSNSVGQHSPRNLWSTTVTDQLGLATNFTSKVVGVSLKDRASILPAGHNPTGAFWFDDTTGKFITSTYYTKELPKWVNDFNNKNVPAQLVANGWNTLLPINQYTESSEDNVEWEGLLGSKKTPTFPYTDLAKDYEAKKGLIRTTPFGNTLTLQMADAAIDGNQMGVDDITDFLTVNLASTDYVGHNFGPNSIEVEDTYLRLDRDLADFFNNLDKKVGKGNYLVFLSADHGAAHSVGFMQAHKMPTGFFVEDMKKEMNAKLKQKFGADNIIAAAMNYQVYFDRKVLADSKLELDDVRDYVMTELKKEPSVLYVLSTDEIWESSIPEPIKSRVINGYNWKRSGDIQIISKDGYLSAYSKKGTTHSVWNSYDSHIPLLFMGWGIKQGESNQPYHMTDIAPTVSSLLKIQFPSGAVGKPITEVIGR
Substitution | phosphate dissociation constant [µM]
D96G | < 529
L193V | 557
L177V | 605
Y380G | 725
L303G | 518
A235V | 546
N80G | < 365
T208G | 639
I450G | 430
G110V | 687
G127V | 623
E97G | 563
W198V | 260
E176V | 663
L326V | 630
L364V | 647
V102G | 237
S210V | 355
A195V | 606
T232V | 668
L478G | 461
E395G | 588
K462V | 634
I74G | 160
V99A | 721

Further values, each from its own experiment
Substance | partner | test | setting | measurement | result
HMGA1 (Homo sapiens, UniProt P17096) | H2BC12L (Homo sapiens, UniProt P57053) | cross-linking MS | hits only | interaction screen | cross-linked

Some of these lines once more (study 1):
Molecule | minimum log2 enrichment ratio
HTPMREHQQIHWHKF | 2.99
HPMIDRHKHTPWNKH | 2.08
YYLPAYQIAPKYVQD | 2.89
HRDVNNHSLHQSPTH | 2.3
YATPWTPQYQIMYN | 4.47
TYHFPHTHNHVQQHH | 3.9
HLSQDHHPKRQKHTH | 2.3
HWHSAAIDPHRHRGE | 2.34
